Published values gathered from unrelated publications.
Compare with care: the assays were run in different laboratories. ± gives the spread as reported.

| Structure (SMILES) | organism | test | system | setting | EC50 |
| --- | --- | --- | --- | --- | --- |
| CC(=O)Oc1ccc(Cn2cc(F)c(=O)[nH]c2=O)cc1C1OC(c2cccc(Cl)c2)=NN1C(C)=O (centres unmarked) | varicella-zoster virus | plaque formation, plaque reduction | HEL fibroblasts, TK- strain 07-1 | – | > 20 µM |
| O=C1C(Cc2ccc(C(F)(F)F)cc2)=CS(=O)(=O)c2ccccc21 | Leishmania panamensis | parasite growth, flow cytometry | U-937 | 72 h, intracellular, amastigote | 3.96 µM |
| CNC(=O)c1ccc(-c2cnn3ccc(C(=O)N(c4ccc(C#N)cn4)C(C)(C)C)cc23)cc1 | Cryptosporidium hominis | cytopathic effect | HCT-8 | – | 1.94 µM |
| CCCCCCCCCC(=O)OCC1OC(n2cc(C)c(=O)[nH]c2=O)CC1N(C)C (centres unmarked) | reovirus 1 | viral replication | Vero | – | > 0.23 µM |
| CNC(=O)c1ccc(-c2cnn3ccc(C(=O)Nc4ccc(C#N)cn4)cc23)cc1 | Cryptosporidium hominis | cytopathic effect | HCT-8 | – | > 20 µM |
| CC(=O)Oc1ccc(Cn2ccc(=O)[nH]c2=O)cc1C1OC(c2cccc(Cl)c2)=NN1C(C)=O (centres unmarked) | varicella-zoster virus | plaque formation, plaque reduction | HEL fibroblasts, TK+ strain OKA | – | 43 µM |
| CC(C)Nc1nc(NCc2ccco2)c2ccccc2n1 | Leishmania mexicana | parasite growth | – | amastigote | 1.41 µM |
| Nc1ncnc2c1c(Cl)cn2[C@@H]1O[C@H](CO)[C@@H](O)[C@H]1O | Trypanosoma equiperdum | parasite growth, resazurin | – | 72 h | 0.12 µM |
| CC(=O)Oc1ccc(Cn2cc(C)c(=O)[nH]c2=O)cc1C1OC(c2cccc(Cl)c2)=NN1C(C)=O (centres unmarked) | varicella-zoster virus | plaque formation, plaque reduction | HEL fibroblasts, TK+ strain OKA | – | > 20 µM |
| CCOC(=O)/C=C/[C@H](C[C@@H]1CCNC1=O)NC(=O)[C@@H]1[C@@H]2[C@H](CN1C(=O)[C@@H](NC(=O)C(F)(F)F)C(C)(C)C)C2(C)C | HCoV-229E | viral replication | MRC-5 | 96 h | 1.29 ± 0.664 µM |
| CC(=O)Oc1ccc(Cn2cc(C)c(=O)[nH]c2=O)cc1C1OC(c2ccccc2)=NN1C(C)=O (centres unmarked) | varicella-zoster virus | plaque formation, plaque reduction | HEL fibroblasts, TK- strain 07-1 | – | > 100 µM |
| CC(C)OC(=O)[C@H](Cc1ccccc1)NP(=O)(COCCn1cnc2c(=O)[nH]c(=O)[nH]c21)N[C@@H](Cc1ccccc1)C(=O)OC(C)C | varicella-zoster virus | plaque formation | HEL, TK- 07-1 | – | 26.5 µM |
| CN(C(=O)c1ccn2ncc(-c3ccc(C(F)(F)F)cc3)c2c1)c1ccc(C#N)cn1 | Cryptosporidium hominis | cytopathic effect | HCT-8 | – | 2.54 µM |
| CCOc1cccc(NC(=O)CSc2cn(C(=O)OC(C)(C)C)c3ccccc23)c1 | human coronavirus OC43 | viral cytopathic effect, MTS | HCT-8 | 120 h | 0.94 µM |
| O=c1cc[s+]([O-])c2ccc(Cl)cc12 (single isomer, unassigned; (+)) | Leishmania panamensis | parasite growth, flow cytometry | U-937 | 72 h, intracellular, amastigote | 214 µM |
| CN(C(=O)c1ccn2ncc(-c3ccc(C(N)=O)cc3)c2c1)C1CCC(C#N)CC1 (centres unmarked) | Cryptosporidium hominis | cytopathic effect | HCT-8 | – | > 20 µM |
| CC(=O)Oc1ccc(Cn2cc(C)c(=O)[nH]c2=O)cc1C1OC(c2ccc(Cl)cc2)=NN1C(C)=O (centres unmarked) | varicella-zoster virus | plaque formation, plaque reduction | HEL fibroblasts, TK- strain 07-1 | – | > 20 µM |
| CC(=Nn1c(-c2ccccc2)nc2ccccc2c1=O)c1ccc(Cl)cc1 | reovirus 1 | viral replication | Vero | – | > 20 µg/mL |
| CC(=O)Oc1ccc(Cn2cc(F)c(=O)[nH]c2=O)cc1C1OC(c2ccc(Cl)cc2)=NN1C(C)=O (centres unmarked) | varicella-zoster virus | plaque formation, plaque reduction | HEL fibroblasts, TK- strain 07-1 | – | > 20 µM |
| CCOC(=O)[C@@H](C)NP(=O)(CO[C@H](CF)Cn1cnc(N)nc1=O)N[C@H](C)C(=O)OCC | varicella-zoster virus | plaque formation | HEL, TK-deficient 07-1 | – | > 100 µM |
| CCCCCCCC1=CC(=O)c2ccccc2S1(=O)=O | Leishmania panamensis | parasite growth, flow cytometry | U-937 | 72 h, intracellular, amastigote | 62.4 µM |
| CC(=O)Oc1ccc(Cn2ccc(=O)[nH]c2=O)cc1C1OC(c2ccc(Cl)cc2)=NN1C(C)=O (centres unmarked) | varicella-zoster virus | plaque formation, plaque reduction | HEL fibroblasts, TK- strain 07-1 | – | > 20 µM |
| O=C1/C(=N\NC(=S)NN=Cc2cccs2)c2ccccc2N1Cc1ccccc1 | reovirus 1 | viral cytopathogenicity | Vero | – | > 20 µM |

Repeated from above:
| Structure (SMILES) | organism | test | system | setting | EC50 |
| --- | --- | --- | --- | --- | --- |
| CNC(=O)c1ccc(-c2cnn3ccc(C(=O)Nc4ccc(C#N)cn4)cc23)cc1 | Cryptosporidium hominis | cytopathic effect | HCT-8 | – | > 20 µM |
| CC(=O)Oc1ccc(Cn2ccc(=O)[nH]c2=O)cc1C1OC(c2cccc(Cl)c2)=NN1C(C)=O (centres unmarked) | varicella-zoster virus | plaque formation, plaque reduction | HEL fibroblasts, TK+ strain OKA | – | 43 µM |
| CC(C)Nc1nc(NCc2ccco2)c2ccccc2n1 | Leishmania mexicana | parasite growth | – | amastigote | 1.41 µM |
| Nc1ncnc2c1c(Cl)cn2[C@@H]1O[C@H](CO)[C@@H](O)[C@H]1O | Trypanosoma equiperdum | parasite growth, resazurin | – | 72 h | 0.12 µM |
